Measurements pooled from the literature.
Numbered parts are unrelated; each lists some results of a single study. Positions count from the first letter of the parent shown.

Series 1
Target: CCNE1, cyclin fold, Cln2 fusion (human)
Technique: yeast growth competition, sequencing
Medium: yeast
Notes: strong parent motif
Reference: not given
Reading: higher = stronger binding
Starting sequence: CDC25A docking peptide (human); PPHRRRLLFACSP
Substitution | normalised enrichment score
PPHRRRLPFACSP [L8P] | 0.122
PPHRRRNLFACSP [L7N] | 0.423
PPHRRRLLFACKP [S12K] | 0.425
PPHRRRLLFACSC [P13C] | 1.94
PPHGRRLLFACSP [R4G] | 1.08
PPHRRRLLFAISP [C11I] | 1.21
PPHRRRLDFACSP [L8D] | 3.41
PTHRRRLLFACSP [P2T] | 1.86
PPHRRRLLFKCSP [A10K] | 1.53
PPHRRRLLMACSP [F9M] | 0.852
PGHRRRLLFACSP [P2G] | 1.29
HPHRRRLLFACSP [P1H] | 1.02
PPHRRRQLFACSP [L7Q] | 0.142
PPHRRRPLFACSP [L7P] | 0.0101
PPNRRRLLFACSP [H3N] | 0.771
PPHARRLLFACSP [R4A] | 1.96
PPHRRRLLFACSS [P13S] | 1.1
PPHRNRLLFACSP [R5N] | -0.102
PPHRAAAAFACSP [R5A R6A L7A L8A] | 0.172
PPTRRRLLFACSP [H3T] | 1.94
PPHRRRLLSACSP [F9S] | 0.956
PPHRRRLLYACSP [F9Y] | 0.529
PAHRRRLLFACSP [P2A] | 0.938
EPHRRRLLFACSP [P1E] | 2.76
PPHMRRLLFACSP [R4M] | 0.807

Series 2
Target: Interferon regulatory factor 3, full length, phosphomimetic (IRF3, Homo sapiens, UniProt Q14653, residues 1-427, S386D/S396D/S398D/S402D/T404D/S405D)
Technique: protein-binding microarray
Molecule type: double-stranded DNA, one strand shown
Medium: in vitro
Tested at: 2540 nM top
Notes: 60-bp whole probe
Added: salmon DNA 0.4 mg/ml
Reference: random background probes
Reading: higher = stronger binding
Shared flanks, not repeated: GCCTAGCAC … GTCTTGATTCGCTTGACGCTGCTG
Target sequence (chain): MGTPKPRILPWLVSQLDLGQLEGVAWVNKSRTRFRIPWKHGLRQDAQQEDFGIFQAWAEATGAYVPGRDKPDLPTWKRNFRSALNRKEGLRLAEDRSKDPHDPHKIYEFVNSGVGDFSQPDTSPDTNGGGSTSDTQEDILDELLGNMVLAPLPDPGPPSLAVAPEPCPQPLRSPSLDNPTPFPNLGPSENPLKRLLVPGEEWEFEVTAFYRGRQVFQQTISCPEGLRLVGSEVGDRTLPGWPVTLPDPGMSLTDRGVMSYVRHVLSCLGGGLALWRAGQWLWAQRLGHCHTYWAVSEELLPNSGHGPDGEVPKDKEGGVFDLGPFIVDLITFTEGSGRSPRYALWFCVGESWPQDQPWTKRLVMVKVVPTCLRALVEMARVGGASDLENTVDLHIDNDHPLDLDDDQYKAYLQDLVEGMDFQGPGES
Oligonucleotide | fitted relative affinity
TTAGAACTGAGTATCGAATAGTGCTAG | 0.0367 z-score
AAAGTCTTCACTCTGCTGAAGTGCTAG | -0.0048 z-score
TTAGAAATCAGTTTCGATTAGTGCTAG | 4.93 z-score
GGCGGTATCGGTCTCGGGACGTGCTAG | 4.4 z-score
ATAATTTTTCTAGTGGTTGCGTGCTAG | 0.283 z-score
TTAGGTCTCTGACTGGGTTAGTGCTAG | -0.666 z-score
GACGGACTGGACTTCCGGGACGTGCTA | -0.486 z-score
TTAGATTCCAGTTTCGATTGGTGCTAG | 4.43 z-score
TCATCTCCCAAGTCTTGTACTGTGCTA | 0.897 z-score
TTTACTCTCTACATGGGTATGTGCTAG | 0.67 z-score
TGGGATTTTCCCATGAGTCTGTGCTAG | -0.0116 z-score
TCATCTTTTCTGTTGTCACTGTGCTAG | 1.88 z-score
TTAGAACTGAGTACCGATTAGTGCTAG | 0.62 z-score
GACGGTTCCCTTTTCCTGAGGTGCTAG | 6.27 z-score
TCAGTTTTAAATTCTAAACTGTGCTAG | 2.64 z-score
TTAGGTATAGACACTGGGTTAGTGCTA | -0.857 z-score
GACGGTTTCGACACTGGAGACGTGCTA | 3.38 z-score
GGCGGACTGGGGACTGGGGACGTGCTA | -1.19 z-score
TCCATGCTGGCTTTTATGCGGTGCTAG | -0.783 z-score
TTAGGACTGGACTATCGTTTAGTGCTA | -0.453 z-score
TTAGGCTTCCTTTTCCTTTAGTGCTAG | 3.01 z-score

Series 3
Target: RNA binding protein fox-1 homolog 2, RRM domain, GST-SBP tag (RBFOX2, Homo sapiens, UniProt O43251-10, residues 100-194)
Technique: RNA Bind-n-Seq
Molecule type: RNA
Medium: in vitro
Tested at: 365 nM
Notes: natural RNA segment, single round, ends assumed
Reference: no-protein control
Reading: higher = stronger binding
Shared flanks, not repeated: GGGAGUUCUACAGUCCGACGAUC … UGGAAUUCUCGGGUGCCAA
Target sequence (chain): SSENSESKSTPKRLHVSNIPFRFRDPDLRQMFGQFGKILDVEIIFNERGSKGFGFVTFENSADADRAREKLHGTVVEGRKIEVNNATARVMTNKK
Oligonucleotide | RBNS enrichment (R)
UUGGCCAAUGUAUUUCAGAGAAAGAAGUAAAGCAGGAAAGAAGCCCCCAGUAAACACUAAGAUGGACCUCAAGCCGACUGGUUCCUUGUACUUGAAGUACUUGCCUUUUU | 0.419
AAUAUUGGAAGCUGUGUGUAAGAUUGAUUCAGCAUUCCAUGCACUUGCUUUAAAAUUUAGUCCUGUGCAUACUGUGGUGUUUUUACUGUGCAUAUUUGAAUUUUUCAUGC | 0.738
GUGCUAACACUUUUGCUCUUGGUUGAUGGACAAGAUAGAGGCCAGGGAGUGAAUAACAGUGAGAAGAGGAAUGGCAGGUGCCUGUUUCAUAGUCAGUGAGUGUGAAAGUU | 0.804
CUACUCCCCACUCCUGCCACCAAGCACAUCCGGUCUAGGGGUUCCUCACUCUCUUUCAUUUAGCUGCCAGUCAUUUUAUGAAAAUGAAGUGCUUCUAAGUAUUUCCUUAA | 0.483
GGCUCCUGCCUGACUCUUCCUUCGUCGGAGAAAGGAAAAAACAGUGUUAAGUGACCUAGAAACUUGAACCCUCCUUUGGAGACAACCAUUCUGCUGAAAAUUUAAAACAG | 0.566
CAGCGAGAGCAUGUCCAUCUGUUGGACAGCACUAUUCUAGAGAACUAAACUGGCUUAACGAGUCACAGCCUCAGCUGUGCUGGGACGACCCUUGUCUCCCUGGGUAGGGG | 0.434
UUCCUCCACCUCCUCCCUCCAGCGUUGCUCAGACCUCUGUCUUGGGAGAAAGGUUGAGAUAAGAAUGUCCCAUGGAGUGCCGUGGGCAACAGUGGCCCUUCAUGGGAACA | 0.257
ACCCCAGGCAGGCCCUGUGUACCCCUCCUCUAUACUCCAGCAUUUAAUCUUGUGGCUGCUUUCUUUUUAUUUCCCACUUUCUCUGUUUUAUAACAGAACCUUCUGUAUAG | 1.49
UGGGCCCUGUACCCCCAACUGCGAAUGCCAGACUUAAGACUGCCUUACAGAGUAAUCUUUGAUUUCUCCAUCUGAUGUGGCCCUGGGAGCUGGAGCAAGAGUCCACCUUU | 0.803
UUCUCCAGAGCGCCAGCCAGCCACGGGCCUGAUUCCAGAGGAGCCGAACUGACAGGACACAGCAGGCUGGAGUUGGUGUUAGAUUGCUUCACAUUCUCUUGUCACCACCA | 0.504
ACCCAGGGAGGCAGCAGACAGGUGGGAGCUCCUGGGGCACGGCCGUGGGAUUGCUUCCACCAGUGUGUUUCUGAGACUUCUCCUUAUCUUCCAGGCCAAAGUAUGUUGCU | 0.62
AUUAAGUAAGCAUUUUGCACAUGGGCACCCCAGUGUCCCGCUGGCCCAGCAGGAGUCACUGUUGGCCUCUGGACACUCAUCGGCCUUGGGCAAGUGGUUCUCAGCCAGGU | 0.921

Series 4
Target: Prothrombin, mature alpha-thrombin (F2, Homo sapiens, UniProt P00734)
Technique: aptamer microarray, sandwich
Molecule type: DNA with 2'F-ANA
Medium: in vitro
Tested at: 200 nM
Notes: whole 15-mer aptamer, many near background
Added: Cy3 exosite-II aptamer, 400 nM
Reading: higher = stronger binding
Oligonucleotide: GGTTGGTGTGGTTGG
Modification | mean fluorescence intensity [a.u.]
2'F-ANA at 2 4 7 9 14 15 | 108
2'F-ANA at 1 2 4 5 6 9 13 14 | 64.5
2'F-ANA at 2 3 4 6 7 11 14 15 | 233
2'F-ANA at 4 5 9 11 12 13 | 118
2'F-ANA at 1 2 3 6 7 8 10 13 14 15 | 52.9
2'F-ANA at 1 2 5 6 8 10 11 | 48.1
2'F-ANA at 3 4 7 8 9 12 14 | 424
2'F-ANA at 1 2 3 5 6 8 11 12 13 15 | 80.9
2'F-ANA at 1 2 5 6 7 8 10 | 56
2'F-ANA at 1 2 3 4 5 6 9 13 14 15 | 46.3
2'F-ANA at 3 4 5 7 8 9 11 12 13 14 15 | 53.6
2'F-ANA at 1 3 4 5 9 11 12 | 101
2'F-ANA at 1 3 4 6 7 8 9 10 12 14 | 58.3
2'F-ANA at 1 2 3 4 5 6 7 8 11 13 14 15 | 68.1
2'F-ANA at 3 4 5 6 9 13 15 | 57.9
2'F-ANA at 1 3 5 7 11 15 | 57.1
2'F-ANA at 1 2 4 7 10 11 12 13 14 | 103
2'F-ANA at 2 3 4 5 10 11 13 | 49.8
2'F-ANA at 2 3 4 5 8 9 10 11 12 14 | 49.7
2'F-ANA at 1 2 3 6 8 11 12 13 14 | 78.8
2'F-ANA at 1 2 5 6 7 8 11 13 | 53.5
2'F-ANA at 1 2 3 5 6 7 9 11 12 13 | 183
2'F-ANA at 1 6 8 10 12 | 66.4

Series 5
Target: RING finger protein unkempt homolog, zinc fingers 1-6, GST-SBP tag (UNK, Homo sapiens, UniProt Q9C0B0, residues 30-357)
UniProt Q9C0B0, sequence (30-357, looked up): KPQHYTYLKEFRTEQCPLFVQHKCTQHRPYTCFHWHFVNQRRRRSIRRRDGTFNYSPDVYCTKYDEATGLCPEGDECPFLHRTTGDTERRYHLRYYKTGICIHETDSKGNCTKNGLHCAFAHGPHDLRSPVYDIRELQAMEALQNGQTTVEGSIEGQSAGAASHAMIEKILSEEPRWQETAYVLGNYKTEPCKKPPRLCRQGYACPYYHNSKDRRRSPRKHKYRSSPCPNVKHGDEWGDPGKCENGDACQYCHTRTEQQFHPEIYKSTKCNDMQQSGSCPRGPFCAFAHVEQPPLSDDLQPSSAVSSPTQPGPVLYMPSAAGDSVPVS
Technique: RNA Bind-n-Seq
Molecule type: RNA
Medium: in vitro
Tested at: not given
Notes: RNA with constant flanks, ends assumed
Reference: input RNA pool
Reading: higher = stronger binding
Shared flanks, not repeated: GGGAGUUCUACAGUCCGACGAUC … CAACAGAGGAUUGAGCAUCA
Oligonucleotide | bound/input enrichment [ratio]
UUUUAAACUUCUUUUUUUUAAUUUAAUUUUUUCCUUUCAGGGGUAAAGUUUGCUUUACCAAACCGUGAUUGUAACAGAUUGAUCUGUUUUGGAUGUUGCUAUAGUGACAUGCAGUUCUAU | 4.05
CCCUGUUUAUUGGCUGGAGGUUUAUUAACAUAUAAGUCUCCUGCUACCUCACCCAUCCGCCGUAAUUCUCACAGGUCACUGGAUGGUUUAAGCAGAACUCAGGGCGAAAGUAUAUCAGAA | 0.12
AGUAAGCGGGACUUUAUGCUGAUCACAAACAGAUCCCUGAAAGAGGAAGAUGGAGAAGAAACCGUUACCUAUGACCAUCUGUGUAAGAACUGUCAUCAUGUAGUAGCCAGACACGAGUAU | 0.817
AGCAUGUUACAGCGGAAAAUUGCAGAGCUCGAGGAAGAACAGUCCCAGGGCUCCACCACAAACCGUGACUGGAUGAAAAACCUCAUCUCCCCUGACUUAGGAGUUGUAUUUCUCAAUGUA | 0.251
GAACUGGUGGACUACAUUACAAUAAGCAGAGGCUGUCUGACAGAGCAGACUUACCCUGAAGCCGUCCGAAUGGUAUCUUGCAAUAUAUUCAGAACUCUCCCUCCUAGUGACAGCAAUGAA | 0.267
UUCGUACCAGUUAUUAAACUCUGUUUUGAUGGGAUAGAGAUUGAUAUUUUGUUUGCAAGAUCCGCACUGCAGACAAUUCCUGAAGAUUUGGAUCUACGAGAUGACAGUCUGCUAAAAAAU | 0.166
GCUCUUGCUUAUGGAAUCUAUAAACAAGACCUUCCUGCCUUAGAAGAAAAACCAAGAAAUGCCGUUUUUGUAGAUAUGGGACAUUCUGCCUAUCAAGUUUCUGUAUGUGCAUUUAAUAAA | 0.459
AUUCCGAUUAUGGACACCGGUGAAAACCCAGAGGUUCCCUUCCCCCGGGACAUGAUUGACUCCGAGGCCAAUUUUGAGAAGAUUGAAAAUGAACUGAAGGAAAUCAACACAAACCAGGAA | 0.11
UGUACAAAUCCUAUAACACCUCUUUGUACACAACCUGACCAGGUUAUUAAAGGGGGUGCCCGUAUUAUUCAGUGCCACAUUCUUAAUGAUAAGAGACAUAUAUUAACCAAAGAUACCAAU | 0.171
CUUGCAGUGAGGAAAAGAACCAUUAUCGCUCUUGGCCAUCUGGUUAUGAGCUGUGGAAAUACCGUUUUUGUAGAUCUUAUUGAACAUCUGUUGUCAGAGUUGUCCAAAAAUGAUUCUAUG | 0.41
CGCCCAGUGAAGGCAUCAAGGGAAGAUAGUGGUUUAUUUAGUCCUAUUCGAUCCUCUGCUUUCCGUCCUCUUGGAGGCUGUACUCCAGCUGAAUGUUUUUGCCAAACAGAUAUUGGUGGA | 0.857

A few entries again (series 1):
Substitution | normalised enrichment score
PPTRRRLLFACSP [H3T] | 1.94
PPHRRRLLSACSP [F9S] | 0.956
PPHRRRLLYACSP [F9Y] | 0.529
PAHRRRLLFACSP [P2A] | 0.938
EPHRRRLLFACSP [P1E] | 2.76
PPHMRRLLFACSP [R4M] | 0.807
